Experimental data of several laboratories.
“And” joins repeats or separate records; there may be more than shown.
HTR7: 5-hydroxytryptamine receptor 7 (HTR7, Homo sapiens, UniProt P34969)
TGFBR2: TGF-beta receptor type-2 (TGFBR2, Homo sapiens, UniProt P37173)
nusB with NusE: Transcription antitermination protein NusB, with NusE (nusB, Bacillus subtilis, UniProt P54520)
HTR2C: 5-hydroxytryptamine receptor 2C (HTR2C, Homo sapiens, UniProt P28335)
gag-pol integrase: Gag-Pol polyprotein, integrase (gag-pol, Human immunodeficiency virus type 1 group M subtype B, UniProt P04585)
HTR2A: 5-hydroxytryptamine receptor 2A (HTR2A, Homo sapiens, UniProt P28223)

| SMILES | target | test | test system | setting | inhibition |
| --- | --- | --- | --- | --- | --- |
| O=C(O)c1cn(C2CC2)c2cc(N3CCNCC3)c(F)cc2c1=O | DNA gyrase subunit A (gyrA, Escherichia coli K-12, UniProt P0AES4) | enzyme activity, inhibitor, DNA supercoiling | – | 10 µM | 86.9% |
| c1cncc(OC[C@H]2CN(CCN3CCc4ccccc43)CCO2)c1 | HTR7 | radioligand binding | – | concentration not given, together with: [3H]LSD | 45.3% |
| Fc1ccc(-c2ncn(-c3ccc(-c4ccccc4)cc3)c2-c2ccncc2)cc1 | TGFBR2 | inhibitor | – | 1 µM | 48% |
| Cc1nc(-c2ccc(OC/C=C\COc3ccc(-c4noc(C)n4)cc3)cc2)no1 | nusB with NusE | NusE binding, inhibitor, competitive ELISA | – | 25 µM | 13% |
| Nc1ncnc2c1ncn2C1OC(CSCCNCc2cccc(-c3ccccc3)c2)C(O)C1O (stereo not drawn) | N6-adenosine-methyltransferase catalytic subunit, with METTL14 (METTL3, Homo sapiens, UniProt Q86U44) | – | – | 10 µM | 59% |
| O=C(CCCN1CCC(O)(c2ccc(Cl)cc2)CC1)c1ccc(F)cc1 | sigma-2 receptor (guinea pig) | radioligand binding | – | concentration not given | 99.6% |
| Cc1ccc(C(=O)Nc2ccc3ccccc3c2)o1 | Sodium channel protein type 4 subunit alpha (SCN4A, Homo sapiens, UniProt P35499) | ion current, inhibitor, whole-cell patch clamp | – | 10 µM | 10.4% and 5.7% and 6.7% and 9.8% and 2.5% |
| O=C(CN1CCO[C@@H](COc2ccccn2)C1)N1CCc2ccccc21 | HTR2C | radioligand binding | – | concentration not given, together with: [3H]mesulergine | 28.7% |
| Cn1cc(-c2ccc(F)cc2)c2ccc(Cl)nc21 | gag-pol integrase | strand transfer, inhibitor | HIV-1 | 10 µM | 38.3% |
| COc1c([C@H]2[C@H](C(=O)Nc3ccnc(C(N)=O)c3)O[C@@](C)(C(F)(F)F)[C@H]2C)ccc(F)c1F | Sodium channel protein type 10 subunit alpha (SCN10A, Homo sapiens, UniProt Q9Y5Y9) | ion current, antagonist, whole-cell patch clamp | HEK293T cells | 10 nM, resting state (TP1) | 98.1% |
| Fc1ccc(-c2ncn(C3=CCCCC3)c2-c2ccncc2)cc1 | TGFBR2 | inhibitor | – | 1 µM | 30% |
| COc1ccc2c(c1)C(=O)N(CCN1CCN(c3ccccc3OC)CC1)C2 | HTR2C | radioligand binding | – | concentration not given, together with: [3H]mesulergine | 74.3% |
| Nc1ncnc2c1c(COc1cccc(Cl)c1)nn2C1CCOCC1 | TGFBR2 | inhibitor | – | 1 µM | 0% |
| COc1cc(C(=O)NS(=O)(=O)c2ccccc2C)ccc1Cc1cn(C)c2ccc(NC(=O)OC3CCCC3)cc12 | Volume-regulated anion channel subunit LRRC8C, part LRRC8A IL1 chimera (LRRC8C, Homo sapiens, UniProt Q8TDW0, I133F) | ion current, inhibitor, whole-cell patch clamp | HCT LRRC8-/- cells | 30 µM, +100 mV | 84.7% and 94.6% and 99.3% and 95.5% and 96% |
| O=C(/C=C/c1cccc(OS(=O)(=O)Oc2ccc(C(F)(F)F)cc2)c1)NO | Histone deacetylase 4 (HDAC4, Homo sapiens, UniProt P56524) | – | – | 10 µM | 14% |
| Cc1cccc(-c2cn(C)c3nc(Cl)ccc23)c1 | gag-pol integrase | strand transfer, inhibitor | HIV-1 | 10 µM | 19.4% |
| Cc1nn(-c2ccc(F)cc2F)c(=O)c2nocc12 | Metabotropic glutamate receptor 2 (GRM2, Homo sapiens, UniProt Q14416) | cAMP accumulation, antagonist | – | 10 µM, together with: glutamate 1 µM, forskolin | -48% |
| CCN1CCN(Cc2ccc(NC(=O)c3ccc(C)c(Oc4ccnc5[nH]ccc45)c3)cc2C(F)(F)F)CC1 | Serine/threonine-protein kinase Nek8 (NEK8, Homo sapiens, UniProt Q86SG6) | – | A-375 | 5 µM | -22.4% |

| SMILES | target | test | test system | setting | inhibition |
| --- | --- | --- | --- | --- | --- |
| O=C(CN1CCO[C@H](COc2cccnc2)C1)N1CCc2ccccc21 | HTR7 | radioligand binding | – | concentration not given, together with: [3H]LSD | -1.2% |
| CN1CC(Oc2cnc(C#N)cc2-c2ccn3nc(NC(=O)C4CC4)cc3c2)C1 | Serine/threonine-protein kinase MARK1 (MARK1, Homo sapiens, UniProt Q9P0L2) | inhibitor, KinaseProfiler panel | – | 1 µM | 20% |
| [2H]c1cc(C)c(NC(=O)c2cnc(Nc3cc(N4CCCCC4)nc(C)n3)s2)c(Cl)c1 | MAP kinase-interacting serine/threonine-protein kinase 1 (MKNK1, Homo sapiens, UniProt Q9BUB5) | – | – | 0.01 µM | < 30% |
| NC/C(=C\F)COc1cccc(Cn2c(=S)[nH]c(=O)c3[nH]cnc32)c1 | Protein-lysine 6-oxidase (Homo sapiens, UniProt P28300) | enzyme activity, inhibitor | – | 3.333 µM | 16.6% |
| CCNCc1cnn(-c2ccc(-n3ccc(Cl)c(Cl)c3=O)cc2)c1C(F)(F)F | Short transient receptor potential channel 7 (Homo sapiens, UniProt Q9HCX4) | ion current, whole-cell patch clamp | – | 10 µM, together with: carbachol | no inhibition |
| CC[C@@H]1[C@H](F)C(=O)N[C@@H]1COc1nccc2cc(C(N)=O)c(OC)cc12 | Calcium/calmodulin-dependent protein kinase type II subunit beta (CAMK2B, Homo sapiens, UniProt Q13554) | ATP-site probe binding, ActivX profiling | THP-1 cell lysate | 0.01 mM, Lys1 site | 1.4% |
| COc1cc2c(cc1OC)C(=O)N(CCCCN1CCN(c3ccccc3OC)CC1)C2 | HTR2A | radioligand binding | – | concentration not given, together with: [3H]ketanserin | 90.3% |
| CCNC(=O)Nc1ccc(OCc2cocc2COc2ccc(NC(=O)NCC)cc2)cc1 | nusB with NusE | NusE binding, inhibitor, competitive ELISA | – | 25 µM | 12% |
| COc1cccc(OC[C@H]2CN(CCN3CCc4ccccc43)CCO2)c1 | HTR2A | radioligand binding | – | concentration not given, together with: [3H]ketanserin | 69.1% |
| COc1cc2c(cc1OC)C(=O)C(CC1CCN(Cc3ccccc3)CC1)C2 (stereo not drawn) | N-acyl-aromatic-L-amino acid amidohydrolase (carboxylate-forming) (Acy3, Mus musculus, UniProt Q91XE4) | inhibitor | – | concentration not given | no inhibition |
| Clc1cccc(OC[C@H]2CN(CCN3CCc4ccccc43)CCO2)c1 | HTR2C | radioligand binding | – | concentration not given, together with: [3H]mesulergine | 13.6% |
| O=C(NO)c1ccc(CN2CCCCc3ccccc32)c(F)c1 | HTR7 | radioligand binding, PDSP radioligand binding | – | 10 µM | -9.14% |
| Cn1cc(-c2ccccc2)c2ccc(-c3cc(C(F)(F)F)cc(C(F)(F)F)c3)nc21 | gag-pol integrase | strand transfer, inhibitor | HIV-1 | 10 µM | 36.4% |
| CC(C)(NC(=O)O[C@@H]1CN2CCC1CC2)c1csc(-c2ccc(F)cc2)n1 | Protein arginine N-methyltransferase 1 (PRMT1, Homo sapiens, UniProt Q99873) | enzyme activity, inhibitor | – | 100 µM | no inhibition |
| Cc1cc(-c2ccnc3[nH]cc(F)c23)cc(F)c1[C@@]1(O)[C@H](C)CN(C(=O)CN)C[C@@H]1C | ROCK1 and ROCK2 | ATP probe binding, KiNativ, measured: Lys2 site | HEK293T cell lysate | 1 µM | 20.3% |
| N=C(NN)N/N=C/c1ccc(OC/C=C\COc2ccc(/C=N/NC(=N)NN)cc2)cc1 | nusB with NusE | NusE binding, inhibitor, competitive ELISA | – | 25 µM | 31% |
| O=C(CN1CCO[C@H](COc2cccc(Cl)c2)C1)N1CCc2ccccc21 | HTR7 | radioligand binding | – | concentration not given, together with: [3H]LSD | 21.7% |
| CN(C(=O)n1cnc(-c2ccc[n+]([O-])c2)c1)C1CCCCC1 | Thromboxane A2 receptor (TBXA2R, Homo sapiens, UniProt P21731) | – | – | 10 µM | -4.78% |

A few entries again:
| SMILES | target | test | test system | setting | inhibition |
| --- | --- | --- | --- | --- | --- |
| O=C(NO)c1ccc(CN2CCCCc3ccccc32)c(F)c1 | HTR7 | radioligand binding, PDSP radioligand binding | – | 10 µM | -9.14% |
| O=C(CCCN1CCC(O)(c2ccc(Cl)cc2)CC1)c1ccc(F)cc1 | sigma-2 receptor (guinea pig) | radioligand binding | – | concentration not given | 99.6% |
| CCN1CCN(Cc2ccc(NC(=O)c3ccc(C)c(Oc4ccnc5[nH]ccc45)c3)cc2C(F)(F)F)CC1 | Serine/threonine-protein kinase Nek8 (NEK8, Homo sapiens, UniProt Q86SG6) | – | A-375 | 5 µM | -22.4% |
| Cc1nn(-c2ccc(F)cc2F)c(=O)c2nocc12 | Metabotropic glutamate receptor 2 (GRM2, Homo sapiens, UniProt Q14416) | cAMP accumulation, antagonist | – | 10 µM, together with: glutamate 1 µM, forskolin | -48% |
| CC(C)(NC(=O)O[C@@H]1CN2CCC1CC2)c1csc(-c2ccc(F)cc2)n1 | Protein arginine N-methyltransferase 1 (PRMT1, Homo sapiens, UniProt Q99873) | enzyme activity, inhibitor | – | 100 µM | no inhibition |
